{"data": "Measurements of several laboratories", "note": "Parts stem from different laboratories: compare values within a part only. Changes are numbered by the printed parent chain."}
{"data": "Sample 1", "target": "Prothrombin, mature alpha-thrombin (F2, Homo sapiens, UniProt P00734)", "technique": "aptamer microarray, sandwich", "form": "DNA with 2'F-ANA", "matrix": "in vitro", "tested at": "200 nM", "setting": "whole 15-mer aptamer, many near background", "with": "Cy3 exosite-II aptamer, 400 nM", "direction": "higher = stronger binding", "oligonucleotide": "GGTTGGTGTGGTTGG"}
{"Modification": "2'F-ANA at 1 3 4 6 7 8 11 15", "mean fluorescence intensity [a.u.]": 178}
{"Modification": "2'F-ANA at 1 4 5 8 9 14 15", "mean fluorescence intensity [a.u.]": 53.9}
{"Modification": "2'F-ANA at 1 2 7 8 9 10 14", "mean fluorescence intensity [a.u.]": 61.9}
{"Modification": "2'F-ANA at 1 3 4 6 8 9 10 13 14", "mean fluorescence intensity [a.u.]": 55.7}
{"Modification": "2'F-ANA at 3 4 5 6 8 9 10 11 14", "mean fluorescence intensity [a.u.]": 47.1}
{"Modification": "2'F-ANA at 2 3 4 6 8 11 12 13 14", "mean fluorescence intensity [a.u.]": 259}
{"Modification": "2'F-ANA at 3 4 6 7 10 11 13 14 15", "mean fluorescence intensity [a.u.]": 166}
{"Modification": "2'F-ANA at 1 2 5 8 9 10 11 12 13 14", "mean fluorescence intensity [a.u.]": 48.7}
{"Modification": "2'F-ANA at 2 4 12 13 14 15", "mean fluorescence intensity [a.u.]": 120}
{"Modification": "2'F-ANA at 3 4 7 8 9 10 11 13 14 15", "mean fluorescence intensity [a.u.]": 190}
{"Modification": "2'F-ANA at 1 4 5 8 10 11 14", "mean fluorescence intensity [a.u.]": 50.4}
{"Modification": "2'F-ANA at 4 6 9 11 12", "mean fluorescence intensity [a.u.]": 425}
{"Modification": "2'F-ANA at 1 3 9 11 13", "mean fluorescence intensity [a.u.]": 209}
{"Modification": "2'F-ANA at 1 2 3 6 8 11 14 15", "mean fluorescence intensity [a.u.]": 69.2}
{"data": "Sample 2", "target": "RNA binding protein fox-1 homolog 2, RRM domain, GST-SBP tag (RBFOX2, Homo sapiens, UniProt O43251-10, residues 100-194)", "technique": "RNA Bind-n-Seq", "form": "RNA", "matrix": "in vitro", "tested at": "365 nM", "setting": "natural RNA segment, single round, ends assumed", "reference": "no-protein control", "direction": "higher = stronger binding", "constant ends, left off below": "GGGAGUUCUACAGUCCGACGAUC … UGGAAUUCUCGGGUGCCAA", "Construct (chain)": "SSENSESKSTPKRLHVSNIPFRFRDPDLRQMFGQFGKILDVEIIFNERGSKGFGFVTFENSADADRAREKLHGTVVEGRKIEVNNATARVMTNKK"}
{"Oligonucleotide": "CAUGGGGUGGCCACUCCACCCGCAGCCAGACUCCCCGCUCCCCACUUUUCAUGCAGGCUGGCAUACCCCUGGCUCAGGGUCAAAUGCUGUUCCACACCCACCUCAGAGGC", "RBNS enrichment (R)": 0.487}
{"Oligonucleotide": "UAAAUGCAAUUAUUUUUCUGCCAAUGGUAUAGCCUAUGCCUAUGCUUGAGAAGUGUAGGUCUACUGAAGAACCAUUACAAAUGGACGUCAGAGGUGUGCUGUACUUUUGA", "RBNS enrichment (R)": 0.92}
{"Oligonucleotide": "CACUGAAUCCCGAGGAGAGGCUGAAAAAAUCAGAGUAGAAACCAGCAACAUUUACAAGUGUGUCUGGAGUAAUCCUGUUUCCUCCCAGCUGCAAAGCUUCUCUCAAGUUC", "RBNS enrichment (R)": 0.246}
{"Oligonucleotide": "UGGUUUGGUUCUUGUUUCAGCCCAAUAUGUAGAGAACAUUUGAAACAGUCUGCACCUUUGAUACGGUAUUGCAUUUCCAAAGCCACCAAUCCAUUUUGUGGAUUUUAUGU", "RBNS enrichment (R)": 0.683}
{"Oligonucleotide": "AAGUAAAAAACACCUUUAAAAUCAUGUCAGCCUGCUUAGAAUGUACAUGUUAAAAAGCAAUUUAAGAUGAAAAAACUAGCUUUACAGUGUGUACACUUUUUCUCUAAAAU", "RBNS enrichment (R)": 0.644}
{"Oligonucleotide": "UACCACCAAUGAUGUGGGGAAGUGUGUUUCCCUAACAACUGGAGUUUUAGCCUAACCCUGAUCCCUUAACUGGUGCACCCCAGCCCCCGUGUUCGGGGCUCCCACCAUCU", "RBNS enrichment (R)": 0.227}
{"Oligonucleotide": "AAUGCUGUCUUUUCUAUGGUGUAGAAUCUUUCUUUCUGAUAAGGAACGUCUCAGGCUUAGAAAUAUAUGAAAUUGCUUUUUGAGAUUUUUGCGUGUGUGUUUGAUAUUUU", "RBNS enrichment (R)": 1.4}
{"Oligonucleotide": "AAGACAAAUUGAUCAGUGCUUCCCACUCCAAGUCAAGCUUUAUGCAGGAAUGCUUUUCCAUCAGGGAAUAAAUACUUAGAAGCGCUUACAAGGUGCCAGGCACCUCCUUU", "RBNS enrichment (R)": 1.03}
{"Oligonucleotide": "GGCCUGCCUGUUCCCAUUCUUGCAUGGCAAGGACUGCAGGGACUGCCAGUCCCCCUGCCCCAGGGCUCCCGGCUAUGGGGGCACUGAGGACCAGCCAUUGAGGGGUGGAC", "RBNS enrichment (R)": 2.1}
{"Oligonucleotide": "AAGAACAUGAAGAGAACAGAAUCACUUGAAAAUGGAUGCCAGUCAUCUCUUGUUCCCACUACUGAAUUCUUAUAAAGUGGUGGCAAGAUAGGGAAGGGAUAAUCUGAGAA", "RBNS enrichment (R)": 0.522}
{"Oligonucleotide": "UCUGAGUGUGAGGGGUUUCAUUUCUAUGGCUAAUCCCCAAAGCUGUAACACAUAGGGCAGGUACCUACUGAGGCACCCAGGCUUCUAAAAACUGUUCUCAGGACCUUGGG", "RBNS enrichment (R)": 0.282}
{"Oligonucleotide": "ACCCAUCAGGGGUGUAGCACAGGGUUAGCCAAGCCCCUGUGGGGUGCUUGGAUCAGGAGAGGAUACCUCAGUGGUUAAGGUUCUGAUGGACGCACAUAUACAUAGAUGUA", "RBNS enrichment (R)": 0.331}
{"data": "Sample 3", "target": "CCNE2, cyclin fold, Cln2 fusion (human)", "technique": "yeast growth competition, sequencing", "matrix": "yeast", "setting": "weak parent motif", "reference": "not given", "direction": "higher = stronger binding", "parent": "SLBP docking peptide (human); ARYKRKLLINDFG; partner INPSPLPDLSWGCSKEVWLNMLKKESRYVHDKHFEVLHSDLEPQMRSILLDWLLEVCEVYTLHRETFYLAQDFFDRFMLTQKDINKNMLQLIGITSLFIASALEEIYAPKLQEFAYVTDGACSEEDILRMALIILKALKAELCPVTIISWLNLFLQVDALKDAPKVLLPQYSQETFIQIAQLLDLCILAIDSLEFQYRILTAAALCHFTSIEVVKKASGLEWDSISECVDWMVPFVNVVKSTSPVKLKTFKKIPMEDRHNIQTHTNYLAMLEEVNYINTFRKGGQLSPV"}
{"Change": "Y3R", "normalised enrichment score": 0.68}
{"Change": "N10S", "normalised enrichment score": 0.48}
{"Change": "A1I", "normalised enrichment score": 0.593}
{"Change": "R5A", "normalised enrichment score": 0.382}
{"Change": "R2N", "normalised enrichment score": 1}
{"Change": "G13P", "normalised enrichment score": 0.951}
{"Change": "L8S", "normalised enrichment score": 0.288}
{"Change": "L7N", "normalised enrichment score": 0.894}
{"Change": "L8Y", "normalised enrichment score": 0.482}
{"Change": "L8V", "normalised enrichment score": 1.24}
{"Change": "R2Q", "normalised enrichment score": 0.853}
{"Change": "R5G", "normalised enrichment score": 0.202}
{"Change": "N10G", "normalised enrichment score": 2.03}
{"Change": "Y3H", "normalised enrichment score": 0.812}
{"data": "Further values, each from its own experiment"}
{"Substance": "PhoQ, residues 284 288 289 292 302 303 SNSSNI", "target": "PhoP, residues 12 14 15 18 19 STWGI (Escherichia coli, UniProt P23836)", "test": "Sort-seq, measured: YFP reporter", "test system": "E. coli", "setting": "PhoQ-PhoP variant library, with: 10 µM Mg2+", "how to read": "reference: high Mg2+ state, higher = stronger signaling", "endpoint": "fold induction", "result": 0.442}
{"note": "Excerpt of the above (sample 1):"}
{"Modification": "2'F-ANA at 2 4 12 13 14 15", "mean fluorescence intensity [a.u.]": 120}
{"Modification": "2'F-ANA at 1 3 9 11 13", "mean fluorescence intensity [a.u.]": 209}
{"Modification": "2'F-ANA at 1 2 3 6 8 11 14 15", "mean fluorescence intensity [a.u.]": 69.2}
{"Modification": "2'F-ANA at 1 3 4 6 8 9 10 13 14", "mean fluorescence intensity [a.u.]": 55.7}
